Published values gathered from unrelated publications.
Protocols differ between the studies behind these lines. “And” joins repeats or separate records; there may be more than shown. Numbers after ± are the reported error.

Structure (SMILES)	test	test system	setting	scale	endpoint	result
CC(C)C[C@@H](C=O)NC(=O)[C@H](CC(C)C)NC(=O)[C@H](CC(C)C)NC(=O)OCc1ccccc1	refers to: Ub(G76V)-GFP	–	10 µM	–	degradation rate constant	0.0021 min⁻¹
C[C@]12CC[C@@H]3c4ccc(O)cc4CC[C@H]3[C@@H]1CC[C@@H]2O	RT-qPCR, refers to: CO	Arabidopsis thaliana ING1:FLAG seedlings	dose not given, 6 h (ZT12)	relative to: mock	relative mRNA level	0.0129
COc1cc(-c2ccccc2)ncc1C(=O)Nc1ccc2c(=O)[nH]c(-c3ccc(C(C)(C)O)cc3)nc2c1	RNA-seq GSEA, refers to: HALLMARK_UNFOLDED_PROTEIN_RESPONSE	organoids, small intestinal, Apc Q1405X, mouse	dose not given, wild-type organoids	relative to: DMSO, direction not given	normalized enrichment score	-1
N#Cc1ccc2c(c1)[C@H]1CCCN(C(=O)c3ccc4[nH]cnc4c3)[C@H]1C2	–	human, Phase II trial	oral, 20 mg once daily, day 28, adjusted mean, SE	–	change, HOMA-beta, from baseline	9.5%
CN(C(=O)n1cnc(-c2ccc[n+]([O-])c2)c1)C1CCCCC1	refers to: OEA	human, plasma	20 mg single dose	–	AUC(0-t)	791 ng·h/mL
O[C@H]1CCCN[C@@H]1CCCn1cnc2c(Cl)c(Cl)ccc21	ELISA, refers to: Pro-C6	healthy human volunteers, serum	200 mg, day 1, multiple ascending dose	–	maximum reduction	16.1%
Cc1cnc(N2CC3(CCOCC3)C2)c(C(=O)Nc2ccc(C(=O)N3CCc4cc(C(=O)Nc5c(C)cccc5F)sc4-c4ccccc43)cc2)c1	refers to: CXCL8 AUC	human, RSV challenge, plasma	dose not given	relative to: placebo	inhibition	58%
Cn1cc(Nc2nc(N)nc(-c3cccc(-n4ccc5cc(C6CC6)cc(F)c5c4=O)c3CO)n2)cn1	CD63 upregulation, anti-IgE-induced	human, multiple ascending dose, whole blood basophils ex vivo	300 mg twice daily, day 14, 2 h	–	inhibition	97.7%
O=C(O)CNC(=O)Cc1ccccc1	–	ventricular cardiomyocytes, C57BL/6 mouse	dose not given, 0.736 s	–	sarcomere length	1.72 µm
Cc1[nH]c(/C=C2\C(=O)Nc3ccc(F)cc32)c(C)c1C(=O)NCCN1CCCC1	RECIST	dogs with lung metastatic osteosarcoma	dose not given, single agent	–	clinical benefit rate	17.6%
C=CCn1c(=O)c2cnc(Nc3ccc(N4CCN(C)CC4)cc3)nc2n1-c1ccc2c(n1)[C@@](O)(CC)CC2	–	Calu-6 xenograft, BALB/c nude mice	oral, 80 mg/kg once daily x 26, day 21	–	tumour volume difference	1140 ± 43.4 mm3
CO[C@H]1CC[C@H](N2C(=O)CNc3ncc(-c4ccc(C(C)(C)O)nc4)nc32)CC1	flow cytometry	stimulated T cells, human, blood	45 mg single dose, 3 h, median	relative to: baseline	p4EBP1 change from baseline	-55.7%
N#CC[C@H](C1CCCC1)n1cc(-c2ncnc3[nH]ccc23)cn1	–	Balb/c mice, oxazolone atopic dermatitis	day 17, unit not given	relative to: vehicle	ear thickness difference	-0.14
NC(=O)c1cnc2[nH]ccc2c1N[C@@H]1[C@@H]2CC3C[C@H]1C[C@@](O)(C3)C2	flow cytometry	Japanese healthy men, blood	oral, 100 mg twice daily, 72 h after day 7 dose	relative to: baseline	CD8+ memory T-cell change	-0.15%
CC(C)NCC(O)c1ccc(O)c(O)c1 (stereo not drawn)	–	ventricular cardiomyocytes, C57BL/6 mouse	dose not given, 0.636 s	–	sarcomere length	1.72 µm
C[C@@H]1CCC[C@H](n2cnc(-c3cc(Cl)ccc3-n3cc(Cl)nn3)cc2=O)c2cc(ccn2)-c2c(cnn2C(F)F)NC1=O	–	rabbit plasma	IC1.5× aPTT, Actin FS reagent	–	concentration for aPTT prolongation	700 nM
C[C@H](Oc1ccc(Br)cc1-c1ccon1)C(=O)O	last response latency	human, tibialis anterior muscle	200 mg, 15 Hz, SAD	–	difference from placebo	0.455%
N#Cc1ccc2c(-c3ccncc3)c(-c3ccc(F)cc3)nn2c1	kinase binding, competitor, MIB/MS competition, refers to: HRK1	Candida albicans cell lysate	100 nM	relative to: DMSO	log2 fold change	0.429
Cn1cc(Nc2nccc(-c3ccc4c(c3)CN(C3COC3)CC[C@H]4NC(=O)c3cn(C(C)(C)C)nn3)n2)cn1	refers to: glutathione redox reactions I	splenic B cells, mice	30 mg/kg, IgD-activated in vivo	relative to: vehicle, direction not given	pathway activation z-score	1.13
c1ccc(-c2n[nH]cc2-c2ccnc3ccccc23)nc1	kinase binding, competitor, MIB/MS competition, refers to: NIK1	Candida albicans cell lysate	100 nM	relative to: DMSO	log2 fold change	0.728
NCC(=O)Nc1cncc(-c2nn3c(=O)cc(N4CCNCC4)nc3s2)c1	ADP-induced platelet aggregation, light transmission aggregometry	human, stable CAD on aspirin, ex vivo platelets	subcutaneous, 0.04 mg/kg, 360 min post-dose, mean value, added: ADP 20 µM	–	inhibition	0%
Cc1noc(C)c1-c1cc(C(O)(c2ccccn2)c2ccccn2)c2nc(C3CC3)[nH]c2c1	refers to: CCR2 expression	human, peripheral blood	4 mg, day 1, 1604 study	–	maximum inhibition	21%
N=C(N)NCCC[C@H](NC(=O)[C@H](CCCNC(=N)N)NC(=O)[C@H](CCCCN)NC(=O)[C@H](CCC(N)=O)NC(=O)[C@H](CCCCN)NC(=O)[C@H](Cc1ccc(O)cc1)NC(=O)[C@@H](N)CCCCN)C(=O)N[C@@H](CO)C(=O)N[C@@H](Cc1ccc(O)cc1)C(=O)N[C@@H](CCCCN)C(=O)O	air evaporative stimulus	dentin hypersensitivity patients	2.5 µg/tooth single, day 22	relative to: baseline, direction not given	median Schiff sensitivity score change	-0.5

Structure (SMILES)	test	test system	setting	scale	endpoint	result
CC[C@@H](C)[C@@H](NC(=O)[C@@H](Cc1ccc(O)cc1)NC(=O)[C@H]1CCCN1C(=O)[C@@H](CCCNC(=N)N)NC(=O)[C@H](N)Cc1c[nH]cn1)C(=O)N[C@H](C)C(=O)N[C@H](Cc1c[nH]cn1)C(=O)N[C@H](CCCNC(=N)N)C(=O)N[C@@H](C(=O)N[C@H](Cc1ccc(O)cc1)C(=O)N[C@H](CO)C(=O)N[C@H](Cc1ccccc1)C(N)=O)C(C)C	ex vivo flow cytometry	B16 tumour-bearing mice, tumour	dose not given	–	CD3+ CD8+ T cell frequency	17.5% and 16% and 17.3% and 12.8% and 15.4%
CC#Cc1cncc(-c2ccc3c(c2)[C@@]2(N=C(C)C(N)=N2)[C@]2(CC[C@H](OC)CC2)C3)c1	brain Aβ40 reduction, PK/PD model	C57BL/6 mouse	oral, free brain concentration basis	–	IC50	0.6 nM
COc1cc(C)c(Sc2cnc(NC(=O)c3ccc(N4CCN(CCCCCCCNC(=O)COc5cccc6c5C(=O)N(C5CCC(=O)NC5=O)C6=O)CC4)cc3)s2)cc1C(=O)N1CCN(C(C)=O)CC1 (stereo not drawn)	refers to: GATA-3	HuT78 xenograft, NSG mouse, tumour	intraperitoneal, 50 mg/kg every 8 h	–	protein level reduction	> 90%
CC(c1cc2ccccc2s1)N(O)C(N)=O (stereo not drawn)	refers to: 15-HETE	human whole blood	3 µM, added: Escherichia coli	–	amount	1760 ± 353 pg/mL blood
Cc1n[nH]c2ccc(-c3cc(OC[C@@H](N)Cc4ccccc4)cnc3-c3ccoc3)cc12	kinase binding, competitor, MIB/MS competition, refers to: CAK1	Candida albicans cell lysate	100 nM	relative to: DMSO	log2 fold change	-0.167
CCO[C@H]1CCN(Cc2c(OC)cc(C)c3[nH]ccc23)[C@H](c2ccc(C(=O)O)cc2)C1	–	PNH patients, blood	oral, 25 mg then 100 mg, week 12, mean absolute change	relative to: baseline	C3d-positive type III RBCs	-1%
CCOc1c([C@H](C)n2nc(C)c3c(N)ncnc32)cc(Cl)c(F)c1[C@@H]1CNC(=O)C1	Olink proximity extension proteomics, refers to: CD160	human FL or MZL patients, plasma	dose not given, week 8	relative to: baseline	plasma protein level change	-38%
FC(F)(F)CN1CC(n2cc(Oc3ccn4nc(Cl)cc4n3)cn2)C1	untargeted lipidomics, refers to: PC with ≥42 carbons	Abcd1-/y mice, brain and spinal cord	dose not given, 30 days	–	phosphatidylcholine level	decreased
COc1cc2cc(-c3ccc(CC(=O)Nc4cc(C(C)(C)C(F)(F)F)no4)cn3)cnc2cc1OC	RECIST v1.1	human RET-altered solid tumours	12 75 mg tablets, phase I	–	best overall response PD	17%
N#Cc1ccc2c(c1)[C@H]1CCCN(C(=O)c3ccc4[nH]cnc4c3)[C@H]1C2	–	human, plasma	80 mg, day 15, 360 h	relative to: placebo and baseline	change in 1.5-AHG	-8.9%
C[C@H]1O[C@@H](O[C@H]2CC[C@@]3(C)[C@@H](CC[C@]4(C)[C@@H]3C=C[C@]35OC[C@@]6(CCC(C)(C)C[C@H]63)[C@@H](O)C[C@]54C)[C@]2(C)CO)[C@H](O)[C@@H](O[C@@H]2O[C@H](CO)[C@@H](O)[C@H](O)[C@H]2O)[C@H]1O	–	Mus musculus, chronic-plus-binge ethanol-fed, liver	oral, 15 mg/kg/day, 168 h, dosed for 7 days	–	hepatic total cholesterol	0.0844 mmol/g protein and 0.103 mmol/g protein and 0.0815 mmol/g protein and 0.0971 mmol/g protein and 0.0972 mmol/g protein
N#Cc1ccn2c(-c3ccncc3)c(-c3ccc(F)cc3)nc2c1	kinase binding, competitor, MIB/MS competition, refers to: RIO2	Candida albicans cell lysate	10 µM	relative to: DMSO	log2 fold change	0.27
OC(CCN1CCCCC1)(c1ccccc1)C1CC2C=CC1C2 (stereo not drawn)	resting-state EEG	healthy elderly humans	oral, 2 mg, eyes open, LS mean	relative to: baseline	change, Gamma power, EEG Pz-O1	0.6%
N#Cc1ccc(Oc2ccc3c(c2)COB3O)cc1	–	Balb/c mice, oxazolone atopic dermatitis	day 11, unit not given	relative to: vehicle	ear thickness difference	-0.0804
C1=C/COCc2cc(ccc2OCCN2CCCC2)Nc2nccc(n2)-c2cccc(c2)COC/1	–	BALB/c mice rhEPO-induced polycythemia	120 mg/kg	–	spleen weight	0.173 g and 0.179 g and 0.163 g and 0.187 g and 0.199 g and 0.184 g
COc1cc(Nc2ncc3c(n2)-c2ccc(Cl)cc2C(c2c(F)cccc2OC)=NC3)ccc1C(=O)O	–	mouse, NB-SD neuroblastoma xenograft	oral, 2.6 mg/kg, day 7	relative to: vehicle	relative tumour volume T/C	1.84
NC(=O)N1c2ccccc2C=Cc2ccccc21	beam walking test	mouse, CCI neuropathic pain model	20 mg/kg	–	beam crossing time	10.1 ± 0.81 s
C[C@@H](NC(=O)N1C(=O)[C@H](Cc2ccnc(N)c2)[C@H]1C(=O)O)C1CCCCC1	–	human	intravenous infusion, 0.3 to 2.25 mg/kg/h, 5 days	–	ACT change	no effect
C[C@@H]1C[C@H]2[C@@H]3CCC4=CC(=O)C=C[C@]4(C)[C@@]3(F)[C@@H](O)C[C@]2(C)[C@@]1(O)C(=O)CO	–	BALB/c mice, oxazolone atopic dermatitis	topical, 20 mg/ear, 552 h, day 23, unit not given	relative to: vehicle	ear thickness difference	-0.321
O=C([O-])CN1CCN(CC(=O)[O-])CCN(CC(=O)O)CCN(CC(=O)[O-])CC1.[Gd+3]	–	mouse serum	0.3 mM, 25 °C, 7 T	–	T1 relaxation time	483 ms
CSCCNc1nc(SCCC(F)(F)F)nc2c1ncn2[C@@H]1O[C@H](COP(=O)(O)OP(=O)(O)C(Cl)(Cl)P(=O)(O)O)[C@@H](O)[C@H]1O	light transmittance aggregometry	human patients, platelet-rich plasma	dose not given, 15 min, added: ADP 5 µM	–	inhibition of platelet aggregation	44 ± 20.9%
C[C@H]1C[C@H]2CSC(N)=N[C@@]2(c2nc(NC(=O)c3ccc(OC(F)F)cn3)cs2)CO1	refers to: total Aβ	healthy adults, plasma	125 mg once daily, day 7	relative to: placebo	percent change from baseline	-62.8%

Repeated from above:
Structure (SMILES)	test	test system	setting	scale	endpoint	result
Cn1cc(Nc2nc(N)nc(-c3cccc(-n4ccc5cc(C6CC6)cc(F)c5c4=O)c3CO)n2)cn1	CD63 upregulation, anti-IgE-induced	human, multiple ascending dose, whole blood basophils ex vivo	300 mg twice daily, day 14, 2 h	–	inhibition	97.7%
O=C(O)CNC(=O)Cc1ccccc1	–	ventricular cardiomyocytes, C57BL/6 mouse	dose not given, 0.736 s	–	sarcomere length	1.72 µm
Cc1[nH]c(/C=C2\C(=O)Nc3ccc(F)cc32)c(C)c1C(=O)NCCN1CCCC1	RECIST	dogs with lung metastatic osteosarcoma	dose not given, single agent	–	clinical benefit rate	17.6%
C=CCn1c(=O)c2cnc(Nc3ccc(N4CCN(C)CC4)cc3)nc2n1-c1ccc2c(n1)[C@@](O)(CC)CC2	–	Calu-6 xenograft, BALB/c nude mice	oral, 80 mg/kg once daily x 26, day 21	–	tumour volume difference	1140 ± 43.4 mm3
CO[C@H]1CC[C@H](N2C(=O)CNc3ncc(-c4ccc(C(C)(C)O)nc4)nc32)CC1	flow cytometry	stimulated T cells, human, blood	45 mg single dose, 3 h, median	relative to: baseline	p4EBP1 change from baseline	-55.7%
N#CC[C@H](C1CCCC1)n1cc(-c2ncnc3[nH]ccc23)cn1	–	Balb/c mice, oxazolone atopic dermatitis	day 17, unit not given	relative to: vehicle	ear thickness difference	-0.14
